Measurements collected from several papers.
Numbered parts are unrelated; each lists some results of a single study.

Study 1
Target: Protein C-ets-1 (ETS1, Homo sapiens, UniProt P14921, residues 1-441, full length assumed)
Method: protein-binding microarray
Molecule type: double-stranded DNA, one strand shown
Medium: in vitro
Concentration: not given
Notes: k-mer, scored over probes, only values ≥0.25
Direction: higher = stronger binding
Measurement: E-score
Target sequence (chain): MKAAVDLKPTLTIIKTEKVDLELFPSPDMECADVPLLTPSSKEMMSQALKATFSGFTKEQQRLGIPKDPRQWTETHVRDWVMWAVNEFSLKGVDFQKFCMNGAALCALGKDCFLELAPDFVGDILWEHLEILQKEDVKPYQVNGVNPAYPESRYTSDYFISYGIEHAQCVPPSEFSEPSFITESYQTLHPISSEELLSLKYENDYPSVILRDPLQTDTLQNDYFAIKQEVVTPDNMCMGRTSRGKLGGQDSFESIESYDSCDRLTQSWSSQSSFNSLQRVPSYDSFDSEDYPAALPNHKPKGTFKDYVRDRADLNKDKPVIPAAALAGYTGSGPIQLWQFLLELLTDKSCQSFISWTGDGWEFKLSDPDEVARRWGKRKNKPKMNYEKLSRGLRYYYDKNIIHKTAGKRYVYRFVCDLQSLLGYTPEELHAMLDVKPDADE
GTACAGGA: 0.37
GAGCAGGA: 0.309
AACCGGAA: 0.486
TCAGGAAA: 0.401
CTTCCGAA: 0.346
ATCCTGTA: 0.373
TCGTGGAA: 0.262
CTTCCTCC: 0.447
AACTTTCC: 0.309
GAGCATCC: 0.377
CGGAAAAG: 0.41
GAGCCGGA: 0.318
AGGAAGCC: 0.398
CCTCGGAA: 0.293
GAACGGAA: 0.458
AGCGGAAC: 0.416
AGGGAAAT: 0.275
TCCGGACA: 0.419
CTAAAGGA: 0.319
AGGAAGAC: 0.365

Study 2
Target: Histone acetyltransferase KAT6A, winged helix 2, GST fusion (KAT6A, Homo sapiens, UniProt Q92794, residues 85-181)
Method: protein binding microarray
Molecule type: double-stranded DNA, one strand shown
Medium: in vitro
Concentration: not given
Notes: 8-mer, flanks averaged, mean of 2 arrays, mostly near background
Baseline: not given
Direction: higher = stronger binding
Measurement: E-score
Residues (chain): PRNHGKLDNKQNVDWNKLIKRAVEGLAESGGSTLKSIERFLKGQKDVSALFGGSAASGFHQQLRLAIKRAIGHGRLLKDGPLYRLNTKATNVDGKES
CGAACTGC: 0.0602
CGGAAGCC: 0.215
GATACACA: -0.0964
CAGCATAA: 0.0239
AATTGCGA: -0.126
GAGGGTCC: -0.0315
AGTACCCC: -0.0934
CGGATACA: -0.108
CCCTGCCA: 0.0427
CCTCTACG: -0.00495
GGAGCTAC: -0.0722
ATCGGCAT: 0.158
AATGAGGA: -0.136
ATTTGCTC: 0.0218
ACGTACAA: -0.168
CGGTTAAA: 0.155
AAGGATGG: -0.0389
GCATTTGA: 0.00094
GCCCTTGA: 0.0438
AAGCATCA: -0.0322

Study 3
Target: Sal-like protein 4, full length isoform A (SALL4, Homo sapiens, UniProt Q9UJQ4, residues 1-1053)
Chain of UniProt Q9UJQ4 (whole entry, looked up): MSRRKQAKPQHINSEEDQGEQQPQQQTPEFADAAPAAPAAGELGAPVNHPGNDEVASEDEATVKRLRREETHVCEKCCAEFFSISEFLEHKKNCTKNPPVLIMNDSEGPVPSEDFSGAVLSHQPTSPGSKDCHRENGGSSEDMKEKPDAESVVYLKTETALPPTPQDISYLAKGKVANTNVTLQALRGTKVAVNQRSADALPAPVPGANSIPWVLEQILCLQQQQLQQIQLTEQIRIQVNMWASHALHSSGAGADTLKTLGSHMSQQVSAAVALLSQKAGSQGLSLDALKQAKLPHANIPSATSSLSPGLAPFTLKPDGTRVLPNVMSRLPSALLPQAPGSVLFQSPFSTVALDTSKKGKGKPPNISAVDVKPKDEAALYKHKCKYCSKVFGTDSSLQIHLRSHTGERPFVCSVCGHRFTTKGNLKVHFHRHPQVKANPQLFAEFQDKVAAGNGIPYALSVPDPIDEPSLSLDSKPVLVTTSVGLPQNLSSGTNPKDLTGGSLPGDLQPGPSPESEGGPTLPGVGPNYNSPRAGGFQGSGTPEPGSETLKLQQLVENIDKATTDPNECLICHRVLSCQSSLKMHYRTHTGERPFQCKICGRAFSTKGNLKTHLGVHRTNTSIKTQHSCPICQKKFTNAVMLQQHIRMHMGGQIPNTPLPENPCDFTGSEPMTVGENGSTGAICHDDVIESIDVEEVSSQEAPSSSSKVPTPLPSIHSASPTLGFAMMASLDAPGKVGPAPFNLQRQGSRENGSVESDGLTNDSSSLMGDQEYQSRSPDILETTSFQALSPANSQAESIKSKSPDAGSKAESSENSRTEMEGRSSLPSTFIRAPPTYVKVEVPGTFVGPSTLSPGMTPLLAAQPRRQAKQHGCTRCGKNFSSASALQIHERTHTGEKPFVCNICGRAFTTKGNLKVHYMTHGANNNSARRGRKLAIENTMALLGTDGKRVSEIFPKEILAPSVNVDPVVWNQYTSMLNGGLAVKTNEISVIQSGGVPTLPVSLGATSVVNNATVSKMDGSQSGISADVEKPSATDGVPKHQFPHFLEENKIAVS
Method: universal PBM
Molecule type: double-stranded DNA, one strand shown
Medium: in vitro
Concentration: 600 nM
Notes: 8-mer, flanks averaged, mean of replicates
Direction: higher = stronger binding
Measurement: E-score
CTCTATGC: -0.0444
GGTTAAAA: 0.144
ATCTGCCA: -0.0937
ACTAAATG: 0.17
TCAGAACA: 0.1
CGCGTCAA: -0.15
CCTCACTA: -0.0617
CAAGAATC: 0.123
AAATGTAA: 0.286
CCATCAGC: -0.155
GAAGGAAC: -0.0728
CAGTTGGG: -0.135
AGACACAT: 0.11
AACCGGAT: -0.0218
GCATGCGC: -0.13
TAGGTCCA: 0.0808
CGAACTTA: -0.0907
GAGGGTTA: 0.0323
ACCAGTTG: -0.0588
ATCCTCGA: -0.00732
CCCATCTA: 0.0249
ATACAAAC: 0.252
ACCTGGCG: -0.275
ACTATCCT: 0.0619
ATAAGCCC: -0.0472

Study 4
Target: RNA binding protein fox-1 homolog 2, RRM domain, GST-SBP tag (RBFOX2, Homo sapiens, UniProt O43251-10, residues 100-194)
Method: RNA Bind-n-Seq
Molecule type: RNA
Medium: in vitro
Concentration: 365 nM
Notes: natural RNA segment, single round, ends assumed
Baseline: no-protein control
Direction: higher = stronger binding
Measurement: RBNS enrichment (R)
Target sequence (chain): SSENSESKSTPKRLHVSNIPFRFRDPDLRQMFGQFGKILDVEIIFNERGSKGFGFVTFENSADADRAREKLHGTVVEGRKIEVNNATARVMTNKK
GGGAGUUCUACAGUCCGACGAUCAAGUCCUUGCCCACUUCCCACUCUCCUGCCCCAAUCUAUCUAGUACUUCCCAGGCAAAUAGGCCCCUUUGAGGCUCCUGAGUGCCCUCAGAUGGUCAAAACCCAGUUUUCUGGAAUUCUCGGGUGCCAA: 0.522
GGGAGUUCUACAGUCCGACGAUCUAUAUGUAUAUUAUAUGUAUAUGUACACAUAUAUAUUCUAUUAUUAGGCAUACAAGUGGCUCCUGUUCCACAAUACUAACUACUAUAUUUCUACAUUGUGACUUGUUUUAUGGAAUUCUCGGGUGCCAA: 0.428
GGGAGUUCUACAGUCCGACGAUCUACAAGUUGGUCAAAAUAUUCCAUGUACAAAUAGGGCUUCUGUGUCCAUAGCCUUGUAAGAGAUACUGAUUGUAUCUGAAAUUAUUUUUUAAAAAAAUAAAUUAUCCUGCUGGAAUUCUCGGGUGCCAA: 0.846
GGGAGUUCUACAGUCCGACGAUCGCACCGAAAAACUAAAAAUAAUGGGCGCUUUGGAGAAGAGUGUGGAGUCAUUCUCAUUGAAUUAUAAAAGCCAGCAGGCUUCAAACUAGGGGACAAAGCAAAAAGUGAUGUGGAAUUCUCGGGUGCCAA: 0.46
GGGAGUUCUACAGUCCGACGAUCGAGAAAAUCCAACCCAUUGCAAGAAGCUCUUUGUGGGUGCCUGGUUACAUCGGAGCAGGGGAGCCUCAAAUCCACCUUUGGAGCCGCCCCUGUGUGCAUUAGGAACCCUUUGGAAUUCUCGGGUGCCAA: 0.584
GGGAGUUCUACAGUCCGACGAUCUCAUGAUGUGUGCGUGUGGUUUGUUCCUUCUCCUUGCCGGGAAGUAUUUCAUUGCAUGGGCGUACUACUCUGCUUCUUUAUUUUUACACUGAGCCUUUCGCCCUGGAAGUUGGAAUUCUCGGGUGCCAA: 1.98
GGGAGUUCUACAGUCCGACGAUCGAUAACAUUGAACAUGUUCAUAUUGAUAGAGAUAAUAUUGUAUAGGUCUAGUGUGUAUGGAUCUGGGAUCUCCGCCCUUGAGGCAGAGACGGGAAGAUCAGGAGUUCAAGUGGAAUUCUCGGGUGCCAA: 0.438
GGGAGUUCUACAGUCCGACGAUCCCUCCCAGCACCCCAGCUUGCUGGCUGCCCUCUUUGCCUUCUGGCCUCCAGCUGGGUGUGGGGGGGCGGAGCAAGGCGGGGGACAGACGCAGCACCUUCUUAGCGAUCUAUGGAAUUCUCGGGUGCCAA: 1.14
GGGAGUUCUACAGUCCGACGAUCGCACAUUAAUUCCUGUCCUAUAAGAGGGCUGUGGGAAACUGUGUACCUGGAGGUGGUCCAUGCCAGAUCCUCAUUUGUGCCUUCAGCUUCAUAGGCAGCAUACGCCUGCUUGGAAUUCUCGGGUGCCAA: 0.521
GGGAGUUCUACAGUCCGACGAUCUGGGAUUUUCGAAGCAGACAACACUAUUUCAUCGUGUUUCAAAUUGGAACCUUGAGGCUAGUUAGUAUCACACUCAGGCCACACUCAGCACUUGCCCACUCUUGUUUACUUGGAAUUCUCGGGUGCCAA: 0.269
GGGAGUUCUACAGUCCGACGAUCAAGAGUGGAAUAGCUGUUUUAUUCUUAGGUUGUAGAAUGCCUUGUAGUGCUUCAUAUACUUUGGGGACGUAAUAUAGGAGAUAGUCUUACAUAAGUAAUAUAGAAACAGCUGGAAUUCUCGGGUGCCAA: 1.03
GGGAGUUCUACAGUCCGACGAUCGCCAAAAAGUACUUGACUUAAGGUUCACUAAUUAGUUACAAAACUGAACAGCCUCGAUUUUUAAGAAAAUUUAUGAAAUGUAUUUGUCUGUAAAAAUUGUAUAUAUUUUUUGGAAUUCUCGGGUGCCAA: 0.948

Study 5
Target: Centromere-binding protein 1, full length, His-tagged (CBF1, Saccharomyces cerevisiae, UniProt P17106, residues 1-351)
Chain of UniProt P17106 (whole entry, looked up): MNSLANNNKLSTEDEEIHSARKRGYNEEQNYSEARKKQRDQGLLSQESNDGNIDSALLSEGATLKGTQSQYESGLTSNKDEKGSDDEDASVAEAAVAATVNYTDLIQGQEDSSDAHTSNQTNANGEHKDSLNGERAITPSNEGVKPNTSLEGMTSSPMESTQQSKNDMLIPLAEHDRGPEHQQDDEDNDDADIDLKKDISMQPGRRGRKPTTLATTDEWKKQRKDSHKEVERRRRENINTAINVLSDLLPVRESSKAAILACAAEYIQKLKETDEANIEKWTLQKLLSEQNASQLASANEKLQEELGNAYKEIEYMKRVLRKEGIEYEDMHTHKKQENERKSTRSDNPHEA
Method: competition protein-binding microarray
Molecule type: double-stranded DNA, one strand shown
Medium: in vitro
Concentration: 2 µM
Notes: whole 60-bp probe, lowest competitor level
Added: Pho4 competitor, 0.05 µM
Direction: higher = stronger binding
Measurement: fluorescence intensity
TGGAACAAGGTGTTCCAGGTGACAAAGTTGGTTTCAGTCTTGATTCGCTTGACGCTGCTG: 79.6 a.u.
TTTGACCTCTTCGACCACGTGTGTTAGCTGGTCATTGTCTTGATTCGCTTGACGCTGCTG: 1210 a.u.
AAATTACTAAGTTTTCACGTGACGTACCCCGTATGAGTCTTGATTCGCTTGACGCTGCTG: 5500 a.u.
AAATTACTAAGTTTTCACGTGAGATACCCCGTATGAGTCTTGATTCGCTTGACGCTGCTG: 1080 a.u.
GATGACATTATGGTTAACATGATAAAGGATGAATTGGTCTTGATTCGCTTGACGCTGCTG: 82.4 a.u.
AAACCACCCTCTTTTCACGTTTCTTCAAGGCCAGTGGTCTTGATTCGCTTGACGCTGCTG: 90.7 a.u.
CTTCTGTAAATTTGTCTCGTGGGTGGACGCGCCCCGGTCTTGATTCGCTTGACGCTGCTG: 86.9 a.u.
ATATGTGTGCGGTTCCACGGGCAGTCGTTTATGTTGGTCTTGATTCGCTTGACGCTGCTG: 78.6 a.u.
CGTCCTAGTGATTGGTTGGTGGGTGCCATGAGGAAGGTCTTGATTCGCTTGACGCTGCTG: 71 a.u.
GGGCTTCGGAGTTAGCACGTTGAAAGGCATCTGCCAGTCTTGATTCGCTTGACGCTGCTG: 75.1 a.u.
TTCAACGACAGAGGCCTTGTGACGCCCTGGAGCTTGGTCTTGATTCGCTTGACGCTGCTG: 63.5 a.u.
AAGATTCAGCCTTAGCACGCACCAATTCTTGTTCCAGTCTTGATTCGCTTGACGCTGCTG: 81.6 a.u.
GTCTTGTCTCATTTTCACGTGGCCTTCCCCACTTCAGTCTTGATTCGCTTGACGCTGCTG: 566 a.u.
AAAGCGGTAATTTGTGCGGTGGGTGCAGATATCTATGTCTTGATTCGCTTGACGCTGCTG: 79.9 a.u.
CTAACGAAGGTTTGTATCGTGGGTGACAAGCCAAGTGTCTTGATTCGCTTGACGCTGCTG: 82.7 a.u.
GGATACTTGCTTGTTGACGTGCTTTTAGGCATCCTTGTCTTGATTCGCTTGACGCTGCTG: 70.5 a.u.
GCCAGATAGACCACTGTCGTGCTTTGTTAAGTACAGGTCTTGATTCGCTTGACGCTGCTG: 65.1 a.u.
TTTATATTCTTGTTCCTCGTGGCCGAATGGTTACGGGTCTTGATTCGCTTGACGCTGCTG: 101 a.u.
ATTCTTGGTACTTTAGTCGTGATTGTTTGACATGTCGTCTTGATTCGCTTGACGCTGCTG: 109 a.u.
ACCATTGTAGTTATCAACGTGAGCCATAATAGGTTCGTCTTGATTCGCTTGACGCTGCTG: 310 a.u.
AGTCAAGTAAGGCGTCACCTGATTCTACTCCGGCCCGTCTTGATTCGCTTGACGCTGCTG: 686 a.u.
TGCGCAACAACTTGACCGGTGGGTGTATGTCTAGAAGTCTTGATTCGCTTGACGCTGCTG: 59 a.u.
CGTCCTAGCGATTGATTCGTGGGTGCCATGAGGAAGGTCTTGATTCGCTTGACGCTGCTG: 83.4 a.u.
TTGCCGTTGCAAGTGAACGTGCAAATGTATTTATATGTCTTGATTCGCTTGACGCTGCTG: 116 a.u.
AAATTACTAAGTTTTCACGTGATGTACCCCGTATGAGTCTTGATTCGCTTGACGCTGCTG: 3520 a.u.

Further values, each from its own experiment
PhoQ, residues 284 288 289 292 302 303 SSTLLI  fold induction (PhoP, residues 12 14 15 18 19 AQCLL (Escherichia coli, UniProt P23836); Sort-seq, item: YFP reporter; E. coli; PhoQ-PhoP variant library, added: 10 µM Mg2+; baseline: high Mg2+ state, higher = stronger signaling): 5.42

Some of these lines once more (study 1):
GAGCAGGA: 0.309
AACCGGAA: 0.486
TCAGGAAA: 0.401
CTTCCGAA: 0.346
ATCCTGTA: 0.373
TCGTGGAA: 0.262
CTTCCTCC: 0.447
AACTTTCC: 0.309
GAGCATCC: 0.377
CGGAAAAG: 0.41
GAGCCGGA: 0.318
